Experimental data of several laboratories.
Each numbered part is a random draw from the data of one study; scales do not carry over between parts. Changes are numbered by the printed parent chain.

Sample 1 — target: XBP1, bZIP domain (human); method: DHFR protein complementation; sample: yeast; reference: wild-type JUN-FOS pair; reading: higher = stronger binding; measurement: binding fitness
Setting: single substitutions, most at no-binding floor
Starting sequence: JUN, bZIP domain (human); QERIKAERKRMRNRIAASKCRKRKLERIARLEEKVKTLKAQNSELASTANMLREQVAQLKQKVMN; partner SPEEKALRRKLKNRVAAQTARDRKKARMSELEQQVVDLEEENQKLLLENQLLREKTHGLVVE
E44R: -0.949 natural log
E44W: -1.25 natural log
T37H: -0.564 natural log
L59A: -0.182 natural log
L59C: -0.511 natural log
A40I: -0.738 natural log
L31T: -1.44 natural log
R53L: -1.24 natural log
Q55T: -0.753 natural log
L31S: -1.46 natural log
K36I: -0.994 natural log
R53K: -0.79 natural log
N42F: -1.45 natural log

Sample 2 — method: protein-binding microarray; molecule type: double-stranded DNA, one strand shown; sample: in vitro; concentration: not given; reading: higher = stronger binding; measurement: E-score
Target: Max-binding protein MNT, bHLH-zipper, MAX partner unstated (MNT, Homo sapiens, UniProt Q99583, residues 220-300)
Setting: k-mer, scored over probes, only values ≥0.25
Target sequence (chain): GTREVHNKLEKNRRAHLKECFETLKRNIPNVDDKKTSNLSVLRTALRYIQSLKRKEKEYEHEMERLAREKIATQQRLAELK
GACCATGC: 0.421
ACGACCAC: 0.266
CATGCTTA: 0.373
ACGTGTAA: 0.418
CTGAGCAC: 0.257
CGCCACCC: 0.348
CACGCAGC: 0.319
CGTGTAGC: 0.334
GGCGTGCA: 0.378
AGCATGCT: 0.42
CATGTGTC: 0.46
CGGTGCGC: 0.281
CGTGCCAA: 0.329
CATGCACG: 0.414

Sample 3 — method: protein binding microarray; molecule type: double-stranded DNA, one strand shown; sample: in vitro; concentration: not given; reference: not given; reading: higher = stronger binding; measurement: E-score
Target: Histone acetyltransferase KAT6A, winged helix 1, GST fusion (KAT6A, Homo sapiens, UniProt Q92794, residues 1-85)
Setting: 8-mer, flanks averaged, mean of 2 arrays, mostly near background
Construct (chain): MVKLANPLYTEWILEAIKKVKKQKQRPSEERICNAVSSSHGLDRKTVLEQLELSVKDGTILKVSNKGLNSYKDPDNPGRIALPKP
ATTGCCTG: -0.148
ATAGATCG: -0.00573
CAGTCCAG: -0.162
GGTGCATA: -0.117
GACCCTCA: -0.285
ACTAAACG: -0.0728
ATACGTCA: 0.0526
ACTAGCTA: -0.00873
ACCATAAT: -0.0445
CTGAACAC: -0.0271
ATGCTTTA: 0.0143
TCAGATAA: -0.208
AGTGAATA: -0.209
ACTCGAAC: -0.167
GTGATCAC: 0.0994
GACCGGAA: 0.152
CCAAGTCC: -0.0444
GGTATGCA: -0.141
CCTGCCCC: -0.0325
ATATCGTC: -0.221
AACGTGTG: -0.305
ACACCTAA: -0.057
AACCTCGG: -0.00889
ACACACCC: -0.11
ATCGTAAC: 0.0588

Sample 4 — method: RNA Bind-n-Seq; molecule type: RNA; sample: in vitro; concentration: 365 nM; reference: no-protein control; reading: higher = stronger binding; measurement: RBNS enrichment (R)
Target: RNA binding protein fox-1 homolog 2, RRM domain, GST-SBP tag (RBFOX2, Homo sapiens, UniProt O43251-10, residues 100-194)
Setting: natural RNA segment, single round, ends assumed
Target sequence (chain): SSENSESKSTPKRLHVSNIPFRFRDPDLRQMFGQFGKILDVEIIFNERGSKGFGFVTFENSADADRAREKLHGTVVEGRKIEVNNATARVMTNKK
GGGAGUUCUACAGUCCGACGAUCCUCAUGCAAAGUAGGGAACACCUUUUGAGCAUCUUUGAAUUUGACAAAUGGUGCUGUUGCAAACACUUUUUUUUUGAGAUGAAGUCUCGCGGUUGUCACCCGGGCUGGAGUGGAAUUCUCGGGUGCCAA: 1.19
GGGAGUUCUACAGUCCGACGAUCCCAUCUUUCGGUGCAUUGGCCAUGUUACUGUGCCAAAGUGUCUUAAUUCUUGUCCCAUCUAUUCUCAGCUGGCCUUGGAACCCACAUAGGAGUUGGUGGGGGAGGGAUGGUGGAAUUCUCGGGUGCCAA: 0.397
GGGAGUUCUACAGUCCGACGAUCAUUACGUGUUGAAUAUUUUGAGUAAGAAGAAAAGAAUCCAUCUUCAGAAUAUAGGGUUGUUCUUUGGGAAAAAGAGUAUAAGAACAUAAUUUCUUUGUCCUAGACUUUACUGGAAUUCUCGGGUGCCAA: 0.534
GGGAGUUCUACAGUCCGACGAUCCUGAUUGAGGACACAUGGUUACCACCUGGCCCUGAGUGCAGUCAGACUGGGACAAAGGAGCCGUGAAACACGCAAGGAGCUUCUGGCUUCUCAGCUUUGAGACCUGGGCUUGGAAUUCUCGGGUGCCAA: 0.324
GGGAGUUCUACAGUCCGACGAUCACCCUCCCUCAGCCUCCAGAGGACUGAGAUAUGUGUGUGCACCUCCCAUCUCGCUCAGCACAGGGUUUCUGUGGGAUGAGUUUGAUUCUCUUGUUCUCACUGCUGAACUGUGGAAUUCUCGGGUGCCAA: 0.363
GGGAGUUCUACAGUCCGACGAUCAGAACUGCACCGCUGUCUUGUGAGCAUGGCGUGAACAGGCUGUUUUGCUCCAGCCACUUUUCUUGUACAACUACGGGGAUGGACUAGAUGUCCUCUGGUCUUUUCCAUCUUGGAAUUCUCGGGUGCCAA: 2.66
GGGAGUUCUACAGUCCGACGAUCUCUUGCAGUUUUUUUGGUAAUACCGUGGUCUAUUUAUACAAAUAUUAAAAGUGCUGUUUAUAGAGCCUGUGUCAUGUGGCAACUUUCAGAGGCCCCAGAUGUUGGGGGUAUGGAAUUCUCGGGUGCCAA: 1.22
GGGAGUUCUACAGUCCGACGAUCAGGGCAGGGCCUGGGGAGGGUGGCCUGUCCAGUCCUGCAGACAAGGGGAGGCCUGACAGAGCCCAAGAAUGAGGACACCCUCGGCACGGGAACCCAUUCACUUAGCGUUUUGGAAUUCUCGGGUGCCAA: 0.408
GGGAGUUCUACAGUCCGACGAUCAAGCACAUGCCUGUUUACGAUUAACACUAAAGUUUUAAUAUAUAAGUAUUUGAAGUCUGUUCAACUUAGUUUUACGCUAGUGUUCUGACAUAUUUUAAUUGCAUAUAACUUGGAAUUCUCGGGUGCCAA: 0.567
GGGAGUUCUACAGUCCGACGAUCAUCGGGAGGGGAGCAGUAGCACUAUGGGAGGGAGAGAGGCCUUCCAUAGCCUCCUCCCCAGGACCUGUGCUCCCAGCUUCUGCAGAGACCCCAGCAACUUUCCCUCCAAGUGGAAUUCUCGGGUGCCAA: 0.312
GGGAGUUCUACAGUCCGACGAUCAAUGUGGUCUGUACAAGGACACUGGAGGAAGUAUGUUUGCUACCUGUAAGUUCUAAAUGUGUACUCCUGAGGUUACAGUUUGGGUGUUAGGAGAAGUCUUUGUAGUCUCUUGGAAUUCUCGGGUGCCAA: 0.929
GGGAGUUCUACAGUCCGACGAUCAAGGAUGCUGAGGCCUAGAGAUGGGAAGUGACUUGCUCAAGGUCACACAAUUGGAUAGUGACAUAGCUAGAGCGCAGAGUUCCUGAUUCCAAGUCACCUGUGCUUUCUGGUGGAAUUCUCGGGUGCCAA: 0.472

Sample 5 — method: RNA Bind-n-Seq; molecule type: RNA; sample: in vitro; concentration: 20 nM; setting: 6-mer, flanks averaged, single round; together with: 150 mM LiCl; reference: input library; reading: higher = stronger binding; measurement: 6-mer enrichment (R)
Target: TAR DNA-binding protein 43, full length, His tag (TARDBP, Homo sapiens, UniProt Q13148, residues 1-414)
GUCAGA: 0.891
CCUUAG: 0.915
UUUGUC: 1.1
AAUCGG: 0.854
CCUCCA: 0.99
UAGGAU: 0.901
UCCUGU: 0.963
CAGCCU: 0.895
AGCUAG: 0.892
UGACGC: 0.929
UUCACA: 0.854
GUGCUA: 1.01
CAUACG: 0.811
UGCUGG: 1.07
GUAACU: 0.882
UUAGCU: 0.923
CCCCAU: 1.19
CAACCU: 0.843
CAUCUU: 0.9
AGGGCG: 1.09
GCGACU: 0.897
GAGUAC: 0.9

Sample 6 — method: DHFR PCA, deep sequencing; sample: yeast; together with: (+)-ABA 200 µM; reference: wild-type fitted maximum; reading: higher = stronger binding; measurement: relative binding score
Target: ABI1, truncated, D143A, DHFR fusion (Arabidopsis thaliana)
Setting: methotrexate growth selection, single substitutions
Starting sequence: PYL1, truncated, DHFR fusion (Arabidopsis thaliana); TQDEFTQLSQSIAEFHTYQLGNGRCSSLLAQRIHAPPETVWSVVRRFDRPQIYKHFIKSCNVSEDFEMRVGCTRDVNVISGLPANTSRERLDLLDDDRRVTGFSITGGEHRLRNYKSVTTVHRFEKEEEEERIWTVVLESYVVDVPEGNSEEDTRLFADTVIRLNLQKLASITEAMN
A175T: 100%
R132E: 114%
V78H: 26.7%
R32I: 89.6%
L20M: 97.6%
E109N: 110%
R113A: 104%
L91K: 8.17%
Q2V: 99.5%
R111K: 88.3%
L8M: 90.6%
V161C: 75.6%
M68E: 79.8%

Sample 7 — target: CCNF, cyclin fold, Cln2 fusion (human); method: yeast growth competition, sequencing; sample: yeast; setting: strong parent motif; reference: not given; reading: higher = stronger binding; measurement: normalised enrichment score
Starting sequence: RBL1 docking peptide (human); GSAKRRLFGEDPP; partner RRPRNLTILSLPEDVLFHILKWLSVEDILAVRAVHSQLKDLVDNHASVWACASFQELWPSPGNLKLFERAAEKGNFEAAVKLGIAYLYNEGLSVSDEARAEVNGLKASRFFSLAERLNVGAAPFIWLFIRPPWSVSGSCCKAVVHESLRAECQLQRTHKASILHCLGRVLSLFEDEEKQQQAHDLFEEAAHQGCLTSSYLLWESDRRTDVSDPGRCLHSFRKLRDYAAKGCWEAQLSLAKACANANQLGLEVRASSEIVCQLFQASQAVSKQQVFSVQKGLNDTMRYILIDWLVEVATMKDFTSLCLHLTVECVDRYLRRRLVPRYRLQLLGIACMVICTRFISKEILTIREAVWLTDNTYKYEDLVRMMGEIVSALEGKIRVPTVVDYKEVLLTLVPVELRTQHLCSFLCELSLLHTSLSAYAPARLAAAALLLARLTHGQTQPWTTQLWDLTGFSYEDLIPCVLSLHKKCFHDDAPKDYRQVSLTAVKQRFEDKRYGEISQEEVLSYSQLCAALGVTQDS
GSAKRRLFGEDEP [P12E]: 8.15
LSAKRRLFGEDPP [G1L]: 9.32
GSAKRRLFAEDPP [G9A]: 8.26
GSAKRRLFGEHPP [D11H]: 6.56
GSAKRRLAGEDPP [F8A]: 0.408
GSALRRLFGEDPP [K4L]: 0.924
GSAKRRLFSEDPP [G9S]: 6.73
GSAKRRLFGESPP [D11S]: 6.36
GSAKRRLFGEWPP [D11W]: 8.26
GSAKRRNFGEDPP [L7N]: -0.276
GSAKRRLSGEDPP [F8S]: -0.813
GSAKRRLFGEDMP [P12M]: 7.68
GSAWRRLFGEDPP [K4W]: 2.18
GSRKRRLFGEDPP [A3R]: 1.79
GSAKFRLFGEDPP [R5F]: -0.118
NSAKRRLFGEDPP [G1N]: 8.01

Sample 8 — method: Sort-seq; item: YFP reporter; sample: E. coli; setting: PhoQ-PhoP variant library; together with: 10 µM Mg2+; reference: high Mg2+ state; reading: higher = stronger signaling; measurement: fold induction
Molecule: PhoQ, residues 284 288 289 292 302 303 ASTSDA
PhoP, residues 12 14 15 18 19 TQAML (Escherichia coli, UniProt P23836): 12.9
PhoP, residues 12 14 15 18 19 NQCAL (Escherichia coli, UniProt P23836): 9.82
PhoP, residues 12 14 15 18 19 LHTVL (Escherichia coli, UniProt P23836): 14.1
